# Measurements gathered from unrelated publications.
# Compare with care: the assays were run in different laboratories. ± marks the error that the study gave.
# Cell line: MCF-10A
Compound,effect on,technique,time,notes,IC50
O=[C]=[Re-2]1(=[C]=O)(=[C]=O)([O]S(=O)(=O)c2ccc3ccccc3c2)[n+]2ccc(-c3ccccc3)c3ccc4c(-c5ccccc5)cc[n+]1c4c32,cell growth or viability,resazurin,72 h,,2.79 µM
N#C[CH2][Pd]1[O]c2ccc(Br)cc2C=Nc2cccnc2[N]1Cc1ccccc1,cell growth or viability,MTT,48 h,,> 100 µM
C[n+]1ccn(CC(O)c2ccccc2)[c]1[Ag-][I] (stereo not drawn),cell growth or viability,MTT,72 h,,71.7 µM
CCC(C(=O)O)C1CCC(C)C(C(C)C(O)C(C)C(=O)C(CC)C2OC3(C=CC(NCc4cn(CCOCCOCCOC)nn4)C4(CCC(C)(C5CCC(O)(CC)C(C)O5)O4)O3)C(C)CC2C)O1 (stereo not drawn),cell growth or viability,resazurin,72 h,,> 12.5 µM
CC(=O)N[C@@H](Cc1c[nH]c2ccccc12)C(=O)[O][Re-2]1(=[C]=O)(=[C]=O)(=[C]=O)[n+]2c(C)cc(-c3ccccc3)c3ccc4c(-c5ccccc5)cc(C)[n+]1c4c32,cell growth or viability,resazurin,72 h,,3.04 µM
C#CCOC(=O)C(CC)C1CCC(C)C(C(C)C(O)C(C)C(=O)C(CC)C2OC3(C=CC(O)C4(CCC(C)(C5CCC(O)(CC)C(C)O5)O4)O3)C(C)CC2C)O1 (stereo not drawn),viability,MTT,96 h,,2 ± 0.4 µM
O=[C]=[Re-2]1(=[C]=O)(=[C]=O)([O]C(=O)c2cccnc2)[n+]2ccc(-c3ccccc3)c3ccc4c(-c5ccccc5)cc[n+]1c4c32,cell growth or viability,resazurin,72 h,,7.16 µM
CCC(C(=O)O)C1CCC(C)C(C(C)C(O)C(C)C(=O)C(CC)C2OC3(C=CC(NCc4cn(C56CC7CC(CC(C7)C5)C6)nn4)C4(CCC(C)(C5CCC(O)(CC)C(C)O5)O4)O3)C(C)CC2C)O1 (stereo not drawn),cell growth or viability,resazurin,72 h,,1.26 µM
NS(=O)(=O)c1ccc(/N=N/c2ccc(O)c(/C=N/c3cc(Cl)ccc3O)c2)cc1,cell growth or viability,MTT,72 h,,8.75 µM
COC(Cn1ccn(C)[c]1=[Ag][O]C(C)=O)c1ccccc1 (stereo not drawn),cell growth or viability,MTT,72 h,,> 200 µM
C=CC12COC(=O)C(=C)C1C1OC(=O)C(C)C1C(OC(=O)C(=C)CO)C2 (stereo not drawn),cell growth or viability,MTT,72 h,,2 µM
NS(=O)(=O)c1ccc(/N=N/c2ccc(O)c(/C=N/c3nccs3)c2)cc1,cell growth or viability,MTT,72 h,,13.1 µM
O=C(C[c-]1cccc1)Oc1ccc(-n2cccc2)cc1.[Fe+2].c1cc[cH-]c1,cell growth or viability,MTT,,,288 µM
O=C(c1ccc2ccccc2c1)c1cn(-c2ccccc2)nc1C1=Nn2c(CCCCc3nnc4n3N=C(c3nn(-c5ccccc5)cc3C(=O)c3ccc5ccccc5c3)CS4)nnc2SC1,cell growth or viability,MTT,48 h,,31.4 µM
NS(=O)(=O)c1ccc(/N=N/c2ccc(O)c(/C=N/CCc3c[nH]c4ccccc34)c2)cc1,cell growth or viability,MTT,72 h,,16.4 µM
CCC(C(=O)O)C1CCC(C)C(C(C)C(O)C(C)C(=O)C(CC)C2OC3(C=CC(NCc4cn(Cc5ccccc5)nn4)C4(CCC(C)(C5CCC(O)(CC)C(C)O5)O4)O3)C(C)CC2C)O1 (stereo not drawn),cell growth or viability,resazurin,72 h,,0.53 µM
Cc1ccc(S(=O)(=O)[O][Re-2]2(=[C]=O)(=[C]=O)(=[C]=O)[n+]3c(C)cc(-c4ccccc4)c4ccc5c(-c6ccccc6)cc(C)[n+]2c5c43)cc1,cell growth or viability,resazurin,72 h,,1.78 µM
Cc1cnc2c(ccc3c(C)c(C)cnc32)c1C.O=C([O-])Cc1ccccc1Nc1c(Cl)cccc1Cl.O=C([O-])Cc1ccccc1Nc1c(Cl)cccc1Cl.[Mn+2],cell growth or viability,,,3D culture,36.7 µM
Cc1ccc(S(=O)(=O)[O][Re-2]2(=[C]=O)(=[C]=O)(=[C]=O)[n+]3ccc(-c4ccccc4)c4ccc5c(-c6ccccc6)cc[n+]2c5c43)cc1,cell growth or viability,resazurin,72 h,,3.46 µM
CCC(CCC(C)C1CCC2C3CCC4=CC(=O)CCC4(C)C3CCC12C)C(C)C (stereo not drawn),cell growth or viability,resazurin,24 h,,106 µg/mL
CCC(C(=O)O)C1CCC(C)C(C(C)C(O)C(C)C(=O)C(CC)C2OC3(C=CC(NCc4cn(CCCCSC(C)=O)nn4)C4(CCC(C)(C5CCC(O)(CC)C(C)O5)O4)O3)C(C)CC2C)O1 (stereo not drawn),cell growth or viability,resazurin,72 h,,12.1 µM
NS(=O)(=O)c1ccc(/N=N/c2ccc(O)c(/C=N/c3cccc(O)c3)c2)cc1,cell growth or viability,MTT,48 h,,20.9 µM
COc1ccccc1/C=N/NC(=O)c1cc2cc(Nc3nccc(-c4cccnc4)n3)ccc2[nH]1,cell growth or viability,MTT,48 h,,> 50 µM
CCCCCCCCC=CCCCCCCCC(=O)OC(COC(=O)Cc1c(C)n(C(=O)c2ccc(Cl)cc2)c2ccc(OC)cc12)COP(=O)([O-])OCC[N+](C)(C)C (stereo not drawn),cell growth or viability,SRB,72 h,,182 µM
COc1cc(/C=N/NC(=O)c2cc3cc(Nc4nccc(-c5cccnc5)n4)ccc3[nH]2)cc(OC)c1,cell growth or viability,MTT,48 h,,> 50 µM
NS(=O)(=O)c1ccc(/N=N/c2ccc(O)c(C=O)c2)cc1,cell growth or viability,MTT,72 h,,31.8 µM
CCN(CC)c1ccc2c(c1)[O][Pd]([CH2]C#N)[N](c1ccccc1C)c1ncccc1N=C2,cell growth or viability,MTT,48 h,,> 100 µM
COc1cc(C(=O)c2[nH]c(N)nc2-c2cccs2)cc(OC)c1OC,cell growth or viability,SRB,,,1.89 µM
NS(=O)(=O)c1ccc(/N=N/c2ccc(O)c(/C=N/c3ccccn3)c2)cc1,cell growth or viability,MTT,48 h,,29.2 µM
O=C(c1ccc2ccccc2c1)c1cn(-c2ccccc2)nc1C1=Nn2c(CCc3nnc4n3N=C(c3nn(-c5ccccc5)cc3C(=O)c3ccc5ccccc5c3)CS4)nnc2SC1,cell growth or viability,MTT,48 h,,41.2 µM
NS(=O)(=O)c1ccc(/N=N/c2ccc(O)c(/C=N/c3cc([N+](=O)[O-])ccc3O)c2)cc1,cell growth or viability,MTT,48 h,,13.9 µM
O=[C]=[Re-2]1(=[C]=O)(=[C]=O)([O]C(=O)c2ccccn2)[n+]2ccc(-c3ccccc3)c3ccc4c(-c5ccccc5)cc[n+]1c4c32,cell growth or viability,resazurin,72 h,,3.02 µM
N#C[CH2][Pd]1[O]c2ccc(Br)cc2C=Nc2cccnc2[N]1C1CCCCC1,cell growth or viability,MTT,48 h,,> 100 µM

# Some of these lines once more:
Compound,effect on,technique,time,notes,IC50
COc1cc(/C=N/NC(=O)c2cc3cc(Nc4nccc(-c5cccnc5)n4)ccc3[nH]2)cc(OC)c1,cell growth or viability,MTT,48 h,,> 50 µM
Cc1cnc2c(ccc3c(C)c(C)cnc32)c1C.O=C([O-])Cc1ccccc1Nc1c(Cl)cccc1Cl.O=C([O-])Cc1ccccc1Nc1c(Cl)cccc1Cl.[Mn+2],cell growth or viability,,,3D culture,36.7 µM
CC(=O)N[C@@H](Cc1c[nH]c2ccccc12)C(=O)[O][Re-2]1(=[C]=O)(=[C]=O)(=[C]=O)[n+]2c(C)cc(-c3ccccc3)c3ccc4c(-c5ccccc5)cc(C)[n+]1c4c32,cell growth or viability,resazurin,72 h,,3.04 µM
CCC(C(=O)O)C1CCC(C)C(C(C)C(O)C(C)C(=O)C(CC)C2OC3(C=CC(NCc4cn(Cc5ccccc5)nn4)C4(CCC(C)(C5CCC(O)(CC)C(C)O5)O4)O3)C(C)CC2C)O1 (stereo not drawn),cell growth or viability,resazurin,72 h,,0.53 µM
